# Experimental data pooled from the literature.
# A part holds a random share of what one study measured. Positions count from the first letter of the parent shown.

# Set 1
# Target: ABI1, truncated, D143A, DHFR fusion (Arabidopsis thaliana, UniProt P49597)
# Method: DHFR PCA, dose-response
# Sample: yeast
# Notes: Hill fit, mean, not affinity
# Together with: (+)-ABA, dose series
# Direction: lower = more sensitive
# Starting sequence: PYL1, truncated, DHFR fusion (Arabidopsis thaliana, UniProt Q8VZS8); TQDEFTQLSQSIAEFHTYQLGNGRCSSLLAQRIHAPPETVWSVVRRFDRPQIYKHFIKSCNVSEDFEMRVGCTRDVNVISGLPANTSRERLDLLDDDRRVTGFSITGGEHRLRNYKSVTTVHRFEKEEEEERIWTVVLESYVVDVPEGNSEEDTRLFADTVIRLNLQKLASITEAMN
Change,ABA EC50
D92L,99.3 µM
V43L,4.65 µM
T73W,6.38 µM
E4R,7.3 µM
R24E,2.61 µM
A30G,4.21 µM
R163G,8.47 µM
R45A,61.8 µM
R163Q,6.98 µM
S9L,25.3 µM
Q19T,2.59 µM
T173E,652 µM
Q51R,369 µM
V100H,72.9 µM
H16N,397 µM
K168M,9.97 µM
V76I,0.611 µM
D48V,972 µM
S9Y,10.4 µM
I79L,30.8 µM
P37S,17.3 µM
S9C,6.27 µM
E130C,2.62 µM
Y18M,15.9 µM
E130A,2.7 µM

# Set 2
# Target: FOS, bZIP domain (human)
# Method: DHFR protein complementation
# Sample: yeast
# Notes: single substitutions, most at no-binding floor
# Reference: wild-type JUN-FOS pair
# Direction: higher = stronger binding
# Starting sequence: JUN, bZIP domain (human); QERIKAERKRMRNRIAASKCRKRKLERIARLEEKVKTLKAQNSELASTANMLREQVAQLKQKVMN; partner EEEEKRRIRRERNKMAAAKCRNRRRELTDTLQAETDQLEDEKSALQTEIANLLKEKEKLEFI
Change,binding fitness [natural log]
M51D,0.00223
L38G,-1.2
R30Y,0.0214
K36P,-1.22
L52C,-1.49
T48R,0.0614
T48G,-1.06
K36M,0.0707
V35H,-0.495
L31E,-0.427
L31G,-0.83
A49R,0.148
Q55M,-0.113

# Set 3
# Target: CCNF, cyclin fold, Cln2 fusion (human)
# Method: yeast growth competition, sequencing
# Sample: yeast
# Notes: strong parent motif
# Reference: not given
# Direction: higher = stronger binding
# Starting sequence: CDKN1B docking peptide (human); PSACRNLFGPVDH
Change,normalised enrichment score
D12Y,7.38
A3N,0.687
V11N,6.52
S2H,6.9
N6Y,3.1
G9W,4.46
F8M,0.893
H13N,6.92
D12K,6.94
G9M,3.91
P1K,9
N6R,7.99
L7C,-0.606
R5G,-0.349
P10G,7.3
S2G,6.69
P10M,7.08
S2Y,5.81
G9Y,5.75
F8E,0.0883
L7V,1.3
V11Y,6.71
C4A,6.16
G9C,3.16
R5D,-0.278

# Further values, each from its own experiment
Substance,target,test,test system,conditions,how to read,endpoint,value
"PhoQ, residues 284 288 289 292 302 303 SNSSNI","PhoP, residues 12 14 15 18 19 LQHIR (Escherichia coli, UniProt P23836)","Sort-seq, item: YFP reporter",E. coli,"PhoQ-PhoP variant library, together with: 10 µM Mg2+","reference: high Mg2+ state, higher = stronger signaling",fold induction,2.95

# A few entries again (set 1):
Change,ABA EC50
V43L,4.65 µM
T73W,6.38 µM
E4R,7.3 µM
R24E,2.61 µM
A30G,4.21 µM
R163G,8.47 µM
